# Measurements pooled from the literature.
# Each numbered part is a random draw from the data of one study; scales do not carry over between parts. “And” joins repeats or separate records; there may be more than shown.
# Chain of UniProt P04629 (whole entry, looked up): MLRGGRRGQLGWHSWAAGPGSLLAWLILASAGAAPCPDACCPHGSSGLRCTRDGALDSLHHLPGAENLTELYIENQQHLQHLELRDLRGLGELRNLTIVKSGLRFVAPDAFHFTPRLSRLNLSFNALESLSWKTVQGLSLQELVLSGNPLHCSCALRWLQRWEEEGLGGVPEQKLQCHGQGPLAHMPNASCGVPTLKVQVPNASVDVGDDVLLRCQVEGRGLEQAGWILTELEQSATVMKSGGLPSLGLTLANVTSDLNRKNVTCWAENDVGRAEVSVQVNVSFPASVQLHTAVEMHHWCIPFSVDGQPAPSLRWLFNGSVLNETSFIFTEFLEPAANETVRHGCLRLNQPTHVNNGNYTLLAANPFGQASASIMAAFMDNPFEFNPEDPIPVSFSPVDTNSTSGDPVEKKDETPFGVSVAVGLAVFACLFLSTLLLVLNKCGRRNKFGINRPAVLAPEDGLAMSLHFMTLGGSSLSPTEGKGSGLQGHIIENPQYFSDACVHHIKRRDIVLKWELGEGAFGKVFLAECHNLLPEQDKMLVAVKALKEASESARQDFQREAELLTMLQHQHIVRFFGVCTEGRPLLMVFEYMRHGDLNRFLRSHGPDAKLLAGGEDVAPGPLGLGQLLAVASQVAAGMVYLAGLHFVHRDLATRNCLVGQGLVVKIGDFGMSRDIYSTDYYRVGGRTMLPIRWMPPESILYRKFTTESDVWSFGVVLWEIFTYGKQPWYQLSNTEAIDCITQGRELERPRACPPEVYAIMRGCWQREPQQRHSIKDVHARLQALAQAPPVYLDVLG
# Chain of UniProt Q9Y2U5 (whole entry, looked up): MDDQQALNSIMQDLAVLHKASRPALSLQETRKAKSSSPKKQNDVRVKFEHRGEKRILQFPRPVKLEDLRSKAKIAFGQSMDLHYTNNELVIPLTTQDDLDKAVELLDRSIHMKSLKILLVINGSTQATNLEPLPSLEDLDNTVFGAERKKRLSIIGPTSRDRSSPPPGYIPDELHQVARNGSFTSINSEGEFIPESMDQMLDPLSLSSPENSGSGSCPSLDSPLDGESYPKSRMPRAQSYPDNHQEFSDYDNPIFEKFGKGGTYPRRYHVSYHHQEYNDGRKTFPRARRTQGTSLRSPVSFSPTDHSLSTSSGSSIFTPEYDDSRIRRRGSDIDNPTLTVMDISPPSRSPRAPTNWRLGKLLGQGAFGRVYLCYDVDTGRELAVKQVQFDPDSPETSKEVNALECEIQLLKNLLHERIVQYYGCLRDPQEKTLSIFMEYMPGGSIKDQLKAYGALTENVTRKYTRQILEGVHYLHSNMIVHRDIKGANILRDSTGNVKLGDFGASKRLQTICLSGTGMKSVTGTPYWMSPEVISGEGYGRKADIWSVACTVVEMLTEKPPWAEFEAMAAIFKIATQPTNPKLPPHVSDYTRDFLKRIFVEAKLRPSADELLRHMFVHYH
# Chain of UniProt Q16513 (whole entry, looked up): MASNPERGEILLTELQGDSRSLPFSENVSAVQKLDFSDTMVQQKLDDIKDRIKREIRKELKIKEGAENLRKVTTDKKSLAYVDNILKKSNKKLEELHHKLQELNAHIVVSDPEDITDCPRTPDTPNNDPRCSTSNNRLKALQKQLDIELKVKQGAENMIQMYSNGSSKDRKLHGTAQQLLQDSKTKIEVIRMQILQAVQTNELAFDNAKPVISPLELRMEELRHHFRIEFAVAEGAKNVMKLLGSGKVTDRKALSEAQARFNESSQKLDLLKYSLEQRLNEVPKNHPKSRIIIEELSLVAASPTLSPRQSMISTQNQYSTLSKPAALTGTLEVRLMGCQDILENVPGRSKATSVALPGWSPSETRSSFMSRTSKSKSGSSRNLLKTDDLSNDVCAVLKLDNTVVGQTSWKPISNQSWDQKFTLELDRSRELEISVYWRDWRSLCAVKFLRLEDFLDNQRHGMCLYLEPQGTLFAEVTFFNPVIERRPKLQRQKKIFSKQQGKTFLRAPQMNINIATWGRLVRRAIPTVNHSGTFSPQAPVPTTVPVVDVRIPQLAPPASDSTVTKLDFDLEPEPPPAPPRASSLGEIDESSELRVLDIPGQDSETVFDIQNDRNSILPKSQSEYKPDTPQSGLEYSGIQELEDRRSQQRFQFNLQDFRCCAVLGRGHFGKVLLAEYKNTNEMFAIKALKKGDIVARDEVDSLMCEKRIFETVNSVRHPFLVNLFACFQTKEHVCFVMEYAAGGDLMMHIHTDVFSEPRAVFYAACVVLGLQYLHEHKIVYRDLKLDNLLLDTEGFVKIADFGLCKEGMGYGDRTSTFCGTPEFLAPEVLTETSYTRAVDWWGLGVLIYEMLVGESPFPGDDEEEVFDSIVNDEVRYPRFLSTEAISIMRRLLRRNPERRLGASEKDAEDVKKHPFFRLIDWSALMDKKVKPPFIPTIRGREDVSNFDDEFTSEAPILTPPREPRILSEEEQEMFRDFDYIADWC
# Chain of UniProt O14965 (whole entry, looked up): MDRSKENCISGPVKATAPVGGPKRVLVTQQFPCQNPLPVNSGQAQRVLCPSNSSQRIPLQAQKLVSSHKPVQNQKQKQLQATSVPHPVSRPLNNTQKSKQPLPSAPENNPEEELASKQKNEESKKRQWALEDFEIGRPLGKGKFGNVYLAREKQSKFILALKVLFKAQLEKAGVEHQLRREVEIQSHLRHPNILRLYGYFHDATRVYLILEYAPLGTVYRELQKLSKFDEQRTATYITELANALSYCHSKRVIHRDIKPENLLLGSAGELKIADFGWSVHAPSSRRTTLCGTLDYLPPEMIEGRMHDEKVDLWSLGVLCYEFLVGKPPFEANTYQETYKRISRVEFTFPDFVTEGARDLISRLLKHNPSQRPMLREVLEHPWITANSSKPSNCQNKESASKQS

# Sample 1
# SMILES: CC(C)(O)[C@H](F)CN1Cc2cc(NC(=O)c3cnn4cccnc34)c(N3CCOCC3)cc2C1=O
# JAK1: Tyrosine-protein kinase JAK1 (JAK1, Homo sapiens, UniProt P23458)
# Chain of UniProt P23458 (whole entry, looked up): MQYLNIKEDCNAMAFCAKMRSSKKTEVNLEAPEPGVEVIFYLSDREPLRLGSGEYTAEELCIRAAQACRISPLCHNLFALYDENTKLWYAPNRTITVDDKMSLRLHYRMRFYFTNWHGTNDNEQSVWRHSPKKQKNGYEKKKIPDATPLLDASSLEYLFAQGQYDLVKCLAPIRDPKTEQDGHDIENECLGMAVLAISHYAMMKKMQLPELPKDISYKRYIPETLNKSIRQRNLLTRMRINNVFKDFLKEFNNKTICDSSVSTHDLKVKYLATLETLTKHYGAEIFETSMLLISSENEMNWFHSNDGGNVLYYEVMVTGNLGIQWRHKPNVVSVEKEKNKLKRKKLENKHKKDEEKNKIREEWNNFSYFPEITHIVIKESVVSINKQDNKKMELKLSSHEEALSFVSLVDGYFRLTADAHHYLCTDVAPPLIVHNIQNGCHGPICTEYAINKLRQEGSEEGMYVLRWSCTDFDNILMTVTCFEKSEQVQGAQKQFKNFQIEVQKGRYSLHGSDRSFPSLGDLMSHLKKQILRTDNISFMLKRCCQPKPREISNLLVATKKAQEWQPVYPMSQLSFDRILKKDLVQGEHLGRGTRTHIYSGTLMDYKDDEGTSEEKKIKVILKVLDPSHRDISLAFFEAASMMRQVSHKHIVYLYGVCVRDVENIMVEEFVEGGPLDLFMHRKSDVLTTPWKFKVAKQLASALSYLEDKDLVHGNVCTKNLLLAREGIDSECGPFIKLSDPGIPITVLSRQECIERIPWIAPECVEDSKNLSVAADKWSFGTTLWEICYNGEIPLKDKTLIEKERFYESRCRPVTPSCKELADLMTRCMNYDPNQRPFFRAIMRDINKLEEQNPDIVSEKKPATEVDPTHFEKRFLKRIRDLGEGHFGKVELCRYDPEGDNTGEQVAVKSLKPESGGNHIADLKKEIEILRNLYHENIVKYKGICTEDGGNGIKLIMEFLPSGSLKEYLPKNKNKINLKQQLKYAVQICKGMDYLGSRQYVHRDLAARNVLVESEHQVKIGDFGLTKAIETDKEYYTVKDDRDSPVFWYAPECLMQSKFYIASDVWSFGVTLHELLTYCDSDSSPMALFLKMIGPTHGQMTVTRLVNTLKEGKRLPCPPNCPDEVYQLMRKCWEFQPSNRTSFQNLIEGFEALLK
# JAK2: Tyrosine-protein kinase JAK2 (JAK2, Homo sapiens, UniProt O60674)
# Chain of UniProt O60674 (whole entry, looked up): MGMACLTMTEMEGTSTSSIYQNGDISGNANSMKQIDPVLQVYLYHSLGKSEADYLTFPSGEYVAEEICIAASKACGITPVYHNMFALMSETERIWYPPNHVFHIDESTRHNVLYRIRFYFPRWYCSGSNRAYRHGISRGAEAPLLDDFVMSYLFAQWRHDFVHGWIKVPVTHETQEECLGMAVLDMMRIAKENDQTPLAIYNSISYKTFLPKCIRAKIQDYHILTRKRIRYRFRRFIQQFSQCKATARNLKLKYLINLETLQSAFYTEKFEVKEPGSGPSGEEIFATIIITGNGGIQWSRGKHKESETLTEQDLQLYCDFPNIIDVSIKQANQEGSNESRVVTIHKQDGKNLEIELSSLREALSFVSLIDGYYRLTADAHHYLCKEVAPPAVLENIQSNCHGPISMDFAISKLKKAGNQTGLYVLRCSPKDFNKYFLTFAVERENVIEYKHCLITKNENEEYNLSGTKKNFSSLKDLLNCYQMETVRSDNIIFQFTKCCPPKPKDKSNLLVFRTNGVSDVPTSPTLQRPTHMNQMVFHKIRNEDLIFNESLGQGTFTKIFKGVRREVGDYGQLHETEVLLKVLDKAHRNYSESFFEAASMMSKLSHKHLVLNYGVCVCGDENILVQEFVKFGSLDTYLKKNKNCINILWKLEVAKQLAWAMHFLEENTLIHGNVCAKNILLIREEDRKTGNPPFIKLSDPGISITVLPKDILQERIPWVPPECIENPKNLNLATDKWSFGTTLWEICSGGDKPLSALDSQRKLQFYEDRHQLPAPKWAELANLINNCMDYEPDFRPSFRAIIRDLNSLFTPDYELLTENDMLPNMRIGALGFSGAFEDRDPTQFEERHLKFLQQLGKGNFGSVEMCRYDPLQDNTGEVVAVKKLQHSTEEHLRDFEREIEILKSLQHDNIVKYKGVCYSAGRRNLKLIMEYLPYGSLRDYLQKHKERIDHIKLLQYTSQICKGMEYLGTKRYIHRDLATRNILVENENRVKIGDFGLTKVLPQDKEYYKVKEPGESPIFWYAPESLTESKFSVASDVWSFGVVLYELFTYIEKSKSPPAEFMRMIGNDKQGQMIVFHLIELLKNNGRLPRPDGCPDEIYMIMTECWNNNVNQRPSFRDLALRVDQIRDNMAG
target,assay,test system,EC50
JAK1,"target engagement in cells, BRET",,> 50 µM
"IRAK4 (Homo sapiens, UniProt Q9NWZ3)","target engagement, NanoBRET",live cells,0.0023 µM
"NTRK1 (Homo sapiens, UniProt P04629)","binding, NanoBRET target engagement",,12.5 µM and 8.67 µM and 12 µM
JAK1,"target engagement, NanoBRET",live cells,> 50 µM
JAK2,"target engagement, NanoBRET",live cells,> 50 µM
JAK2,"target engagement in cells, BRET",,> 50 µM

# Sample 2
# Cell line: HEK-293T-ACE2-TMPRSS2
# Technique: cell count
# Concentration: concentration not given
SMILES,viability [%]
CCS(=O)(=O)N(C)c1ccc2sc(C(=O)Nc3ccc(Cl)cc3C)cc2c1,76
CCOC(=O)c1nc(N2CCC(c3ccccc3)C2)c2ccccc2n1 (stereo not shown),84
COc1cc(NC(=O)CCC2CCCN(C3CCSCC3)C2)cc(OC)c1 (stereo not shown),108
N#CCSc1ccccc1NC(=O)Cn1ncc(Cl)c(Cl)c1=O,67
CC(=O)N[C@@H]1CN(Cc2ccc(C)o2)C[C@H]1CO,108
COc1ccc(Br)cc1C1CC(=O)Nc2c1c(C)nn2-c1nc2ccccc2[nH]1 (stereo not shown),78
Oc1c(Cl)cc(Cl)cc1C1Nc2cc(Cl)c(C(F)(F)F)cc2N1 (stereo not shown),65
CCC1Oc2ccc(S(=O)(=O)N3CCN(C(=O)c4cc5ccccc5oc4=O)CC3)cc2NC1=O (stereo not shown),69
CN1/C(=C/C=C/c2ccc3ccccc3[n+]2C)C=Cc2ccccc21,66

# Sample 3
# Cell line: A-375
# Concentration: 100 µM
# Time: 36 h
Compound,viability [%]
CC(C)OC(=O)[C@H](C)N[P@](=O)(CO[C@H](C)Cn1cnc2c(N)ncnc21)Oc1ccccc1,101
C=C1C[C@@H]2[C@H](CC[C@]3(C)C(=O)CC[C@@H]23)[C@@]2(C)C=CC(=O)C=C12,47.8
ClCC1C(CCl)[C@@]2(Cl)C(Cl)=C(Cl)[C@]1(Cl)C2(Cl)Cl (stereo partly shown),0.058
CN1C(=O)CCS(=O)(=O)C1c1ccc(Cl)cc1 (stereo not shown),88.3
O=P1(NCCCl)OCCCN1CCCl (stereo not shown),112
Cc1ccc(-n2nccn2)c(C(=O)N2CCN(c3nc4cc(Cl)ccc4o3)CC[C@H]2C)c1,5.32
Clc1ccc(C(OCCN2CCCCC2)c2ccccc2)cc1 (stereo not shown),-1.89
CC(C)c1cccc(C(C)C)c1O,44.7

# Sample 4
# Compound: CCn1cnc2c(Nc3cccc(Cl)c3)nc(N[C@H]3CCCC[C@H]3N)nc21
# Read-out: enzyme activity
# Action: inhibitor
# Concentration: 0.5 µM
# Relative to: control
target,remaining activity
"CDK7 (Homo sapiens, UniProt P50613)",58.4%
"MAP3K2 (Homo sapiens, UniProt Q9Y2U5)",91.7%
"ROCK2 (Homo sapiens, UniProt O75116)",90.6%
"Aurora kinase A (AURKA, Homo sapiens, UniProt O14965)",105%
"MAPK10 (Homo sapiens, UniProt P53779)",98.8%
"NTRK3 (Homo sapiens, UniProt Q16288)",23.4%
"DMPK (Homo sapiens, UniProt Q09013)",99.7%
"NEK9 (Homo sapiens, UniProt Q8TD19)",95.4%
"BRSK1 (Homo sapiens, UniProt Q8TDC3)",92.4%
"PKN2 (Homo sapiens, UniProt Q16513)",90.3%
"DYRK4 (Homo sapiens, UniProt Q9NR20)",95.1%

# For quick reference, copied from above (sample 3):
Compound,viability [%]
ClCC1C(CCl)[C@@]2(Cl)C(Cl)=C(Cl)[C@]1(Cl)C2(Cl)Cl (stereo partly shown),0.058
Cc1ccc(-n2nccn2)c(C(=O)N2CCN(c3nc4cc(Cl)ccc4o3)CC[C@H]2C)c1,5.32
O=P1(NCCCl)OCCCN1CCCl (stereo not shown),112
CC(C)c1cccc(C(C)C)c1O,44.7
